# Results of several laboratories.
# Protocols differ between the studies behind these lines. Values joined by “and” are separate records of one study, mostly repeats; a detail may differ. ± marks the error that the study gave.
# Organism: Staphylococcus aureus
SMILES,test,system,setting,how to read,quantity,result
CN[C@H](CC(C)C)C(=O)N[C@H]1C(=O)N[C@@H](CC(N)=O)C(=O)N[C@H]2C(=O)N[C@H]3C(=O)N[C@H](C(=O)N[C@H](C(=O)O)c4cc(O)cc(O)c4-c4cc3ccc4O)[C@H](O)c3ccc(c(Cl)c3)Oc3cc2cc(c3O[C@@H]2O[C@H](CO)[C@@H](O)[C@H](O)[C@H]2O[C@H]2C[C@](C)(N)[C@H](O)[C@H](C)O2)Oc2ccc(cc2Cl)[C@H]1O,,"MSSA, 67 strains",,,MIC50,1 µg/mL
CN[C@H](CC(C)C)C(=O)N[C@H]1C(=O)N[C@@H](CC(N)=O)C(=O)N[C@H]2C(=O)N[C@H]3C(=O)N[C@H](C(=O)N[C@H](C(=O)O)c4cc(O)cc(O)c4-c4cc3ccc4O)[C@H](O)c3ccc(c(Cl)c3)Oc3cc2cc(c3O[C@@H]2O[C@H](CO)[C@@H](O)[C@H](O)[C@H]2O[C@H]2C[C@](C)(N)[C@H](O)[C@H](C)O2)Oc2ccc(cc2Cl)[C@H]1O,,"USA300 LAC MRSA, mouse lung infection",dose not given,,bacterial load in lung,6.92 log CFU and 7.38 log CFU and 7.68 log CFU and 7.2 log CFU and 8.51 log CFU
CC(C)c1ccc(/C=C2\N=C(SCC(=O)c3ccccc3)N(c3ccccc3)C2=O)cc1,,ATCC 6538,concentration not given,,inhibition zone diameter,11 ± 0.63 mm
O=c1c(O)c(-c2ccc(O)cc2)oc2cc(O)cc(O)c12,bacterial growth,ATCC 29213,24 h,,IC50,> 100 µM
CN[C@H](CC(C)C)C(=O)N[C@H]1C(=O)N[C@@H](CC(N)=O)C(=O)N[C@H]2C(=O)N[C@H]3C(=O)N[C@H](C(=O)N[C@H](C(=O)O)c4cc(O)cc(O)c4-c4cc3ccc4O)[C@H](O)c3ccc(c(Cl)c3)Oc3cc2cc(c3O[C@@H]2O[C@H](CO)[C@@H](O)[C@H](O)[C@H]2O[C@H]2C[C@](C)(N)[C@H](O)[C@H](C)O2)Oc2ccc(cc2Cl)[C@H]1O,,clinical isolates,"≤2 µg/mL, MIC breakpoint",,isolates inhibited,72.8%
CN[C@H](CC(C)C)C(=O)N[C@H]1C(=O)N[C@@H](CC(N)=O)C(=O)N[C@H]2C(=O)N[C@H]3C(=O)N[C@H](C(=O)N[C@H](C(=O)O)c4cc(O)cc(O)c4-c4cc3ccc4O)[C@H](O)c3ccc(c(Cl)c3)Oc3cc2cc(c3O[C@@H]2O[C@H](CO)[C@@H](O)[C@H](O)[C@H]2O[C@H]2C[C@](C)(N)[C@H](O)[C@H](C)O2)Oc2ccc(cc2Cl)[C@H]1O,,"USA300 LAC, female ICR mice, peritonitis, spleen",,,bacterial load,4.68 log CFU and 5.39 log CFU and 4.31 log CFU and 5.45 log CFU and 5.7 log CFU and 4.7 log CFU
O=C(O)c1ccc(-n2cc(CNc3ccc(Br)c(C(F)(F)F)c3)c(-c3cccc(F)c3)n2)cc1,,ATCC 25923,"24 h, preformed biofilm",,biofilm MIC,2 × planktonic MIC
O=C(NCCc1ccccc1)C(O)CO (centres unmarked),crystal violet staining,,"500 µg/mL, 24 h",relative to: untreated,residual biofilm,83 ± 10%
Cc1ccc(C[C@H](NC(=O)[C@@H](Cc2ccccc2)NC(=O)[C@@H](Cc2c[nH]c3ccccc23)NC(=O)[C@@H](N)CCCN)C(=O)N[C@H](Cc2ccccc2)C(=O)N[C@@H](CCN)C(N)=O)cc1,,"ATCC 33591, methicillin-resistant",,,IC50,> 20 µg/mL
NCC[C@H](O)C(=O)N[C@@H]1C[C@H](N)[C@@H](O[C@H]2O[C@H](CN)[C@@H](O)[C@H](O)[C@H]2O)[C@H](O)[C@H]1O[C@H]1O[C@H](CO)[C@@H](O)[C@H](N)[C@H]1O,,CGMCC 1.9,"concentration not given, 18 h, 37 °C",,inhibition zone diameter,18 mm
O=C(N[C@@H](Cc1ccccc1)C(=O)O)C1COC2(CCCCC2)OC1,crystal violet staining,,"500 µg/mL, 24 h",relative to: untreated,residual biofilm,19 ± 6%
CN[C@H](CC(C)C)C(=O)N[C@H]1C(=O)N[C@@H](CC(N)=O)C(=O)N[C@H]2C(=O)N[C@H]3C(=O)N[C@H](C(=O)N[C@H](C(=O)O)c4cc(O)cc(O)c4-c4cc3ccc4O)[C@H](O)c3ccc(c(Cl)c3)Oc3cc2cc(c3O[C@@H]2O[C@H](CO)[C@@H](O)[C@H](O)[C@H]2O[C@H]2C[C@](C)(N)[C@H](O)[C@H](C)O2)Oc2ccc(cc2Cl)[C@H]1O,,"09057, female BALB/c mice, sepsis, spleen","intraperitoneal, 20 mg/kg",,log bacterial load,4.91 log(CFU/g) and 5.18 log(CFU/g) and 4.73 log(CFU/g) and 5.2 log(CFU/g) and 5.25 log(CFU/g) and 5.26 log(CFU/g)
C[C@@H]1O[C@@H](OC[C@H]2O[C@@H](Oc3c(-c4ccc(O)c(O)c4)oc4cc(O)cc(O)c4c3=O)[C@H](O)[C@@H](O)[C@@H]2O)[C@H](O)[C@H](O)[C@H]1O,bacterial growth,ATCC 29213,24 h,,IC50,> 100 µM
CCCCCCCCCC(=O)N[C@@H](Cc1c[nH]c2ccccc12)C(=O)N[C@H](CC(N)=O)C(=O)N[C@@H](CC(=O)O)C(=O)N[C@@H]1C(=O)NCC(=O)N[C@@H](CCCN)C(=O)N[C@@H](CC(=O)O)C(=O)N[C@H](C)C(=O)N[C@@H](CC(=O)O)C(=O)NCC(=O)N[C@H](CO)C(=O)N[C@@H]([C@H](C)CC(=O)O)C(=O)N[C@@H](CC(=O)c2ccccc2N)C(=O)O[C@@H]1C,Calgary biofilm device,MRSA BAA-1707,,,MBC,125 µM
COc1c(N2C[C@@H]3CCCN[C@@H]3C2)c(F)cc2c(=O)c(C(=O)O)cn(C3CC3)c12,broth microdilution,methicillin-resistant isolates,,,MIC50,1 µg/mL
CCCCCCCCCCCC(=O)N[C@H](CO)C(=O)N[C@@H]1C(=O)N[C@H](CCN)C(=O)N[C@@H](CC(=O)O)C(=O)NCC(=O)N[C@H](CC(N)=O)C(=O)N[C@H](CC(=O)O)C(=O)NCC(=O)N[C@@H](Cc2ccc(O)cc2)C(=O)N[C@@H](C(C)C)C(=O)N[C@@H](CCN)C(=O)N[C@@H](Cc2ccccc2)C(=O)O[C@@H]1C,,USA300,"concentration not given, compound to lipid molar ratios 0 and 5, added: undecaprenyl phosphate",,antibacterial activity,decreased
O=C(O)c1ccc(-n2cc(CNc3cc(Br)cc(C(F)(F)F)c3)c(-c3ccc(F)c(F)c3)n2)cc1,,ATCC 25923,"24 h, preformed biofilm",,biofilm MIC,2 × planktonic MIC
[H]/N=C(/N)N[C@H]1[C@H](O)[C@@H](O)[C@H](O[C@@H]2O[C@@H](C)[C@](O)(C=O)[C@H]2O[C@@H]2O[C@@H](CO)[C@H](O)[C@@H](O)[C@@H]2NC)[C@@H](N/C(N)=N\[H])[C@@H]1O,,CGMCC 1.9,"concentration not given, 18 h, 37 °C",,inhibition zone diameter,13 mm
O=C(O)c1ccc(O)c(O)c1,bacterial growth,ATCC 29213,24 h,,IC50,> 100 µM
CCCCCCCCCC(=O)N[C@@H](Cc1c[nH]c2ccccc12)C(=O)N[C@H](CC(N)=O)C(=O)N[C@@H](CC(=O)O)C(=O)N[C@@H]1C(=O)NCC(=O)N[C@@H](CCCN)C(=O)N[C@@H](CC(=O)O)C(=O)N[C@H](C)C(=O)N[C@@H](CC(=O)O)C(=O)NCC(=O)N[C@H](CO)C(=O)N[C@@H]([C@H](C)CC(=O)O)C(=O)N[C@@H](CC(=O)c2ccccc2N)C(=O)O[C@@H]1C,Calgary Biofilm Device,MRSA 1707 biofilm,24 h,,MBEC,> 2000 µM
COc1cc(-c2oc3cc(O)cc(O)c3c(=O)c2O)ccc1O,bacterial growth,ATCC 29213,24 h,,IC50,> 100 µM
CN[C@H](CC(C)C)C(=O)N[C@H]1C(=O)N[C@@H](CC(N)=O)C(=O)N[C@H]2C(=O)N[C@H]3C(=O)N[C@H](C(=O)N[C@H](C(=O)O)c4cc(O)cc(O)c4-c4cc3ccc4O)[C@H](O)c3ccc(c(Cl)c3)Oc3cc2cc(c3O[C@@H]2O[C@H](CO)[C@@H](O)[C@H](O)[C@H]2O[C@H]2C[C@](C)(N)[C@H](O)[C@H](C)O2)Oc2ccc(cc2Cl)[C@H]1O,broth microdilution,"USA300 MRSA, LB medium",no added Zn2+,,MIC,1 µg/mL
CN[C@H](CC(C)C)C(=O)N[C@H]1C(=O)N[C@@H](CC(N)=O)C(=O)N[C@H]2C(=O)N[C@H]3C(=O)N[C@H](C(=O)N[C@H](C(=O)O)c4cc(O)cc(O)c4-c4cc3ccc4O)[C@H](O)c3ccc(c(Cl)c3)Oc3cc2cc(c3O[C@@H]2O[C@H](CO)[C@@H](O)[C@H](O)[C@H]2O[C@H]2C[C@](C)(N)[C@H](O)[C@H](C)O2)Oc2ccc(cc2Cl)[C@H]1O,,"MRSA GU-1, mouse skin abscess model, skin tissue","subcutaneous, 2.5 mg/kg daily, 7 days",,bacterial load,~290000 CFU/g

# Excerpt of the above:
SMILES,test,system,setting,how to read,quantity,result
Cc1ccc(C[C@H](NC(=O)[C@@H](Cc2ccccc2)NC(=O)[C@@H](Cc2c[nH]c3ccccc23)NC(=O)[C@@H](N)CCCN)C(=O)N[C@H](Cc2ccccc2)C(=O)N[C@@H](CCN)C(N)=O)cc1,,"ATCC 33591, methicillin-resistant",,,IC50,> 20 µg/mL
[H]/N=C(/N)N[C@H]1[C@H](O)[C@@H](O)[C@H](O[C@@H]2O[C@@H](C)[C@](O)(C=O)[C@H]2O[C@@H]2O[C@@H](CO)[C@H](O)[C@@H](O)[C@@H]2NC)[C@@H](N/C(N)=N\[H])[C@@H]1O,,CGMCC 1.9,"concentration not given, 18 h, 37 °C",,inhibition zone diameter,13 mm
